# Assay results gathered from unrelated publications.
# Numbered parts are unrelated; each lists some results of a single study. Values joined by “and” are separate records of one study, mostly repeats; a detail may differ.
# Chain of UniProt P11309 (whole entry, looked up): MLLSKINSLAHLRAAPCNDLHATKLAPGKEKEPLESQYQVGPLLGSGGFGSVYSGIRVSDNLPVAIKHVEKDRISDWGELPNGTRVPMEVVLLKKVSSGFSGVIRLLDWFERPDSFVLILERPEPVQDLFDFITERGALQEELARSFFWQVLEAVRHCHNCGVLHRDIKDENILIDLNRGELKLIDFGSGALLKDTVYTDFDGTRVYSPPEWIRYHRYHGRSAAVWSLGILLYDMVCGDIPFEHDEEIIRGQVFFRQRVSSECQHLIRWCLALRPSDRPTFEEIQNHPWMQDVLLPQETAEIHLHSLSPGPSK
# Chain of UniProt O70423 (whole entry, looked up): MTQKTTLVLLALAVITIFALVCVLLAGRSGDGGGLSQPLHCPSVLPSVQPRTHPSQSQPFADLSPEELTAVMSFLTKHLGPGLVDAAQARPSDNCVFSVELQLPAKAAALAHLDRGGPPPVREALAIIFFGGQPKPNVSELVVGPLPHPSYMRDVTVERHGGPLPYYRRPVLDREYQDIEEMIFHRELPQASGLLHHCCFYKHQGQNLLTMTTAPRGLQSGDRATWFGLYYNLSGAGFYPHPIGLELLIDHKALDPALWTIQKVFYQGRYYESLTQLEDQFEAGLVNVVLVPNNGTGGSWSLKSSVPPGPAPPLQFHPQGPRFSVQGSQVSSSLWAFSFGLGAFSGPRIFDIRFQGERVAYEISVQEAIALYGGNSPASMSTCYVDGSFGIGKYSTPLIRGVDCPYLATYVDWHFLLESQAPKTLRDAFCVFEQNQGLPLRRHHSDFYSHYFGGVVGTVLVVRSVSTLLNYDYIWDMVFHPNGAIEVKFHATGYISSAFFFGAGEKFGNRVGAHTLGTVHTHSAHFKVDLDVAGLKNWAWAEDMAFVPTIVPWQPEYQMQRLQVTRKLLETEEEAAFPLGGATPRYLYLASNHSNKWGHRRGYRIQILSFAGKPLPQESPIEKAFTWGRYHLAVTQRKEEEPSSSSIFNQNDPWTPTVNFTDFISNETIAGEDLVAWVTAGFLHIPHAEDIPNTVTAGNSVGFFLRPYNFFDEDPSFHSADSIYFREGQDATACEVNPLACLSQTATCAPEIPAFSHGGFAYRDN
# Chain of UniProt P51451 (whole entry, looked up): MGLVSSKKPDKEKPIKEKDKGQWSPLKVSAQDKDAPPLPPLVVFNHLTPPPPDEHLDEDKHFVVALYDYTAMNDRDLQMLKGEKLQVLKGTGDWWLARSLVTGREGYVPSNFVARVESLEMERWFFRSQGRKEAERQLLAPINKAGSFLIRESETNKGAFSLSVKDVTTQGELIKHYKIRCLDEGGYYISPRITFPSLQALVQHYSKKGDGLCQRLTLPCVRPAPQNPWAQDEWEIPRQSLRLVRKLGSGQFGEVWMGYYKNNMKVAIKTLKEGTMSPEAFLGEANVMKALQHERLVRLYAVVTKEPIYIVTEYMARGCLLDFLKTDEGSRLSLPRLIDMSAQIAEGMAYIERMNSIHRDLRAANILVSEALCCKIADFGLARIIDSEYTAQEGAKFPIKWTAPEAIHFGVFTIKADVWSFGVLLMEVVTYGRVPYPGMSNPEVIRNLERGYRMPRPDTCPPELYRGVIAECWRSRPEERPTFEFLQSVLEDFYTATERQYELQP
# Chain of UniProt Q9UL54 (whole entry, looked up): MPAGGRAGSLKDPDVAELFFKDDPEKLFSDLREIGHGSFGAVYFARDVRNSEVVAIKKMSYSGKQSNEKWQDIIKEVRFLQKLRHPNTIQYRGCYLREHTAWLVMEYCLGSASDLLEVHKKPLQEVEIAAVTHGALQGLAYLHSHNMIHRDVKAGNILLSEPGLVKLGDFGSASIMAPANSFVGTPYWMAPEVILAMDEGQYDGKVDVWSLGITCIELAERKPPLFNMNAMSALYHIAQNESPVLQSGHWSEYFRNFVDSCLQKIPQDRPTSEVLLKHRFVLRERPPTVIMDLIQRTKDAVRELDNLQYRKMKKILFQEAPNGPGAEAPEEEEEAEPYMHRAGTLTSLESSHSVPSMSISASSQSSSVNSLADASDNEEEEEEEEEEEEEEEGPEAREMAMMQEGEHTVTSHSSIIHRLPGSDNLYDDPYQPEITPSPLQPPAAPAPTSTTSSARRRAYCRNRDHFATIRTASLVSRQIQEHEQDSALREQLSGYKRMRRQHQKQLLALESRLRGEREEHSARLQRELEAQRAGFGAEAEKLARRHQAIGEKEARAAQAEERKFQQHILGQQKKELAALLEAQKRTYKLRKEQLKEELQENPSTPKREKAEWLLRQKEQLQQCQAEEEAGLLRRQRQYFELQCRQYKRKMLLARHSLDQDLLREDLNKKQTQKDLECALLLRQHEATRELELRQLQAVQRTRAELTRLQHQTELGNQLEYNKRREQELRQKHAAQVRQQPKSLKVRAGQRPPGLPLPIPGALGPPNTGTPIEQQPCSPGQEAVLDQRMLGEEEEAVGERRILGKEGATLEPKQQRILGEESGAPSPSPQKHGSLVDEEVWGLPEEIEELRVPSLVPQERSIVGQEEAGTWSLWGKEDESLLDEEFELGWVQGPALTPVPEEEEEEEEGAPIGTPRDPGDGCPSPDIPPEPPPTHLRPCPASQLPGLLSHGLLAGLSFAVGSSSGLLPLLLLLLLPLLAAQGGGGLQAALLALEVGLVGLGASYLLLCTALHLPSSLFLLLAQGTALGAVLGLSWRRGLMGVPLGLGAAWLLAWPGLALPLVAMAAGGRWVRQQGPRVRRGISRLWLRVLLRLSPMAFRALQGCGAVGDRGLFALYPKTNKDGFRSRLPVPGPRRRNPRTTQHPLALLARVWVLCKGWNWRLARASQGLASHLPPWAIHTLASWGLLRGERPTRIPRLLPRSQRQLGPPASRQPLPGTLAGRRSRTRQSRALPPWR
# Chain of UniProt Q52WX2 (whole entry, looked up): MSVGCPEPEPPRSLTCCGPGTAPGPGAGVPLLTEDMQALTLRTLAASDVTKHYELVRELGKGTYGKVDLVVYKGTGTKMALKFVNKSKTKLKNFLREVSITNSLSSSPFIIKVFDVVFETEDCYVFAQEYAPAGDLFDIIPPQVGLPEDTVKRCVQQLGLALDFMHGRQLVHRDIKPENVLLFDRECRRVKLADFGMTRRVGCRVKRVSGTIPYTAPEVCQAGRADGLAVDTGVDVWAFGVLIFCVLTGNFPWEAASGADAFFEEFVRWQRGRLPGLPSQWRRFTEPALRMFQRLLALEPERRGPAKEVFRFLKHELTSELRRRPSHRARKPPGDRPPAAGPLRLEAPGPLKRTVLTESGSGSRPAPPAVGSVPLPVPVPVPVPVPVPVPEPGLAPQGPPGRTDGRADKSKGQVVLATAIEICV

# Study 1
# Structure (SMILES): CC[C@@]1(c2ccccc2)C2=C(CC(C)(C)CC2=O)Nc2n[nH]cc21
# Tested at: 1 µM
target,effect on,method,relative to,remaining binding [%]
"SBK1 (Homo sapiens, UniProt Q52WX2)",binding,competition with immobilised ligand,,100
"EPHA7 (Homo sapiens, UniProt Q15375)",kinase binding,KINOMEscan,DMSO control,100
"MARK3 (Homo sapiens, UniProt P27448)",kinase binding,KINOMEscan,DMSO control,90
"CDK2 (Homo sapiens, UniProt P24941)",kinase binding,KINOMEscan,DMSO control,91
"COQ8B (Homo sapiens, UniProt Q96D53)",kinase binding,KINOMEscan,DMSO control,96
"CSNK2A1 (Homo sapiens, UniProt P68400)",kinase binding,KINOMEscan,DMSO control,97
"TSSK3 (Homo sapiens, UniProt Q96PN8)",kinase binding,KINOMEscan,DMSO control,98
"GRK1 (Homo sapiens, UniProt Q15835)",binding,competition with immobilised ligand,,82
"PIM1 (Homo sapiens, UniProt P11309)",binding,competition with immobilised ligand,,100
"ACVR2A (Homo sapiens, UniProt P27037)",binding,competition with immobilised ligand,,100
"CDK8 (Homo sapiens, UniProt P49336)",binding,competition with immobilised ligand,,100
"Aurora kinase A (AURKA, Homo sapiens, UniProt O14965)",kinase binding,KINOMEscan,DMSO control,100
"LRRK2 (Homo sapiens, UniProt Q5S007)",binding,competition with immobilised ligand,,70
"FES (Homo sapiens, UniProt P07332)",binding,competition with immobilised ligand,,100
"MERTK (Homo sapiens, UniProt Q12866)",kinase binding,KINOMEscan,DMSO control,100
"CSNK1G3 (Homo sapiens, UniProt Q9Y6M4)",binding,competition with immobilised ligand,,100
"CAMK2A (Homo sapiens, UniProt Q9UQM7)",binding,competition with immobilised ligand,,95
"FGFR2 (Homo sapiens, UniProt P21802)",kinase binding,KINOMEscan,DMSO control,100
"PAK2 (Homo sapiens, UniProt Q13177)",kinase binding,KINOMEscan,DMSO control,100
"EIF2AK1 (Homo sapiens, UniProt Q9BQI3)",binding,competition with immobilised ligand,,100
"ULK3 (Homo sapiens, UniProt Q6PHR2)",kinase binding,KINOMEscan,DMSO control,84
"CDC42BPA (Homo sapiens, UniProt Q5VT25)",kinase binding,KINOMEscan,DMSO control,95

# Study 2
# SMILES: O=C(Nc1ccccc1)Nc1cccc(Oc2ccc3nccn3n2)c1
# Tested at: 1 µM
target,effect on,method,remaining binding
"MARK4 (Homo sapiens, UniProt Q96L34)",binding,,91%
"PIK3C2B (Homo sapiens, UniProt O00750)",binding,,100%
"EPHB1 (Homo sapiens, UniProt P54762)",,cell-free binding,100%
"PIK3C2G (Homo sapiens, UniProt O75747)",binding,,100%
"Ribosomal protein S6 kinase alpha-2, C-terminal kinase domain (RPS6KA2, Homo sapiens, UniProt Q15349)",binding,competition with immobilised ligand,86%
"DDR2 (Homo sapiens, UniProt Q16832)",binding,competition with immobilised ligand,99%
"STK26 (Homo sapiens, UniProt Q9P289)",binding,competition with immobilised ligand,100%
"PLK4 (Homo sapiens, UniProt O00444)",binding,competition with immobilised ligand,100%
"CLK2 (Homo sapiens, UniProt P49760)",binding,,100%
"TAOK2 (Homo sapiens, UniProt Q9UL54)",binding,competition with immobilised ligand,100%
"Tyrosine-protein kinase JAK3, JH1 (JAK3, Homo sapiens, UniProt P52333)",cell-free assay,competition with immobilised ligand,100%
"GRK3 (Homo sapiens, UniProt P35626)",binding,,100%
"RIOK3 (Homo sapiens, UniProt O14730)",binding,,85%
"STK17B (Homo sapiens, UniProt O94768)",binding,,99%
"PIM1 (Homo sapiens, UniProt P11309)",binding,,100%
"TNNI3K (Homo sapiens, UniProt Q59H18)",binding,competition with immobilised ligand,100%

# Study 3
# SMILES: CN(C1COC1)C(C)(C)/C=C(\C#N)C(=O)N1CCC[C@H]1Cn1nc(-c2ccc(Oc3ccccc3)cc2F)c2c(N)ncnc21
# Effect on: kinase activity
target,tested at,inhibition [%]
"CHUK (Homo sapiens, UniProt O15111)",1 µM,-2
"GSK3A (Homo sapiens, UniProt P49840)",1 µM,-4
"EPHA3 (Homo sapiens, UniProt P29320)",1 µM,-3
"EPHA5 (Homo sapiens, UniProt P54756)",0.1 µM,3
"CAMK4 (Homo sapiens, UniProt Q16566)",1 µM,9
"PRKCI (Homo sapiens, UniProt P41743)",1 µM,-12
"PIK3CB (Homo sapiens, UniProt P42338)",1 µM,-8
"BMX (Homo sapiens, UniProt P51813)",1 µM,98
"CHEK2 (Homo sapiens, UniProt O96017)",1 µM,5
"CDK1 (Homo sapiens, UniProt P06493)",1 µM,6
"RPS6KA6 (Homo sapiens, UniProt Q9UK32)",1 µM,2
"PRKCA (Homo sapiens, UniProt P17252)",1 µM,-3
"BLK (Homo sapiens, UniProt P51451)",1 µM,91

# Study 4
# Compound: CS(=O)(=O)c1ccc(OC/C(=C/F)CN)cc1.Cl
# MAOB: Amine oxidase [flavin-containing] B (MAOB, Homo sapiens, UniProt P27338)
# Chain of UniProt P27338 (whole entry, looked up): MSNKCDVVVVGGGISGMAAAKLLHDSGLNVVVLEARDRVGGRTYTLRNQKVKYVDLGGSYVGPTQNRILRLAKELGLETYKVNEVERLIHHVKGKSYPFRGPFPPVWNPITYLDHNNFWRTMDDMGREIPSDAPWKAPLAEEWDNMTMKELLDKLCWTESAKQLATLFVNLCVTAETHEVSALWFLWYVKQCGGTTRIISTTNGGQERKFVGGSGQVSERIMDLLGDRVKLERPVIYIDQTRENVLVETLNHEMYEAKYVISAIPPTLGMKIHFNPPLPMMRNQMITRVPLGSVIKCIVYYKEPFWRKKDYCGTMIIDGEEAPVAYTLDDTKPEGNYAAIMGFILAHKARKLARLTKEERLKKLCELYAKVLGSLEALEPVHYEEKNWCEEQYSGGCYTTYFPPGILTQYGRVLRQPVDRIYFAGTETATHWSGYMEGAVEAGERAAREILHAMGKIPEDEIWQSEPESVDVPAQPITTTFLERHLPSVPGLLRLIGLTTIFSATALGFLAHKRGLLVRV
# MAOA: Amine oxidase [flavin-containing] A (MAOA, Homo sapiens, UniProt P21397)
# Chain of UniProt P21397 (whole entry, looked up): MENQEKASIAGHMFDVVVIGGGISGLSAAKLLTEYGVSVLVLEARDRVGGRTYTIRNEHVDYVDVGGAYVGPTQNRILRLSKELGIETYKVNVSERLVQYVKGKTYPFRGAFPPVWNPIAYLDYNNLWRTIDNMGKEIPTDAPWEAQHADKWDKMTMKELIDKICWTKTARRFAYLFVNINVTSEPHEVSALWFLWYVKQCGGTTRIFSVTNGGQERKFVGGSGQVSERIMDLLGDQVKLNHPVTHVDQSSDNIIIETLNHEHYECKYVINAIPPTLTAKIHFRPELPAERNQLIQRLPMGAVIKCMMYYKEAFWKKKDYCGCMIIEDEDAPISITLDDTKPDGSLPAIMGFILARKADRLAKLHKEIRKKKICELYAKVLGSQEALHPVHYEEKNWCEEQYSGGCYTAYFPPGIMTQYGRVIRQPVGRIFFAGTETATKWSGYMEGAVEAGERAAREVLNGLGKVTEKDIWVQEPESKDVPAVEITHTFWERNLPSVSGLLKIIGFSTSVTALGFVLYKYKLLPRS
target,effect on,mode,matrix,tested at,inhibition
MAOB,enzyme activity,inhibitor,,200 pM,4.24% and -0.299%
"Amine oxidase [copper-containing] 3 (Mus musculus, UniProt O70423)",,,mouse adipose tissue,0.037 µM,96.9%
MAOA,enzyme activity,inhibitor,,1.5 nM,-3.01% and -1.67% and 2.41% and -4.62% and 3.67%
MAOA,enzyme activity,inhibitor,,4.6 nM,-2.57% and -2.11% and -2.3% and 2.05% and 4.44%
MAOA,enzyme activity,inhibitor,,41.2 nM,-0.917% and 2.05% and 7.97% and -1.74% and -0.905%
MAOB,enzyme activity,inhibitor,,500 pM,2.61% and 4.56% and -0.72%
"Amine oxidase [copper-containing] 3 (Mus musculus, UniProt O70423)",,,mouse adipose tissue,5.081e-05 µM,5.09%
"Amine oxidase [copper-containing] 3 (Rattus norvegicus, UniProt O08590)",,,rat adipose tissue,0.0005 µM,9.97%
